Published values collected from several papers.
Compare with care: the assays were run in different laboratories. Several values in a cell are separate wells, animals, samples, runs or records. Numbers after ± are the reported error.
PIN1: Peptidyl-prolyl cis-trans isomerase NIMA-interacting 1 (PIN1, Homo sapiens, UniProt Q13526)
UniProt Q13526, sequence (whole entry, looked up): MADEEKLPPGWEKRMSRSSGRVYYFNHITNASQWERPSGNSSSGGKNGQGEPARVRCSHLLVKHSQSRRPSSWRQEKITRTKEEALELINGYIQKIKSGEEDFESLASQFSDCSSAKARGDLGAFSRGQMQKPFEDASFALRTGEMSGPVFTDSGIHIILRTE
UniProt Q07741, sequence (whole entry, looked up): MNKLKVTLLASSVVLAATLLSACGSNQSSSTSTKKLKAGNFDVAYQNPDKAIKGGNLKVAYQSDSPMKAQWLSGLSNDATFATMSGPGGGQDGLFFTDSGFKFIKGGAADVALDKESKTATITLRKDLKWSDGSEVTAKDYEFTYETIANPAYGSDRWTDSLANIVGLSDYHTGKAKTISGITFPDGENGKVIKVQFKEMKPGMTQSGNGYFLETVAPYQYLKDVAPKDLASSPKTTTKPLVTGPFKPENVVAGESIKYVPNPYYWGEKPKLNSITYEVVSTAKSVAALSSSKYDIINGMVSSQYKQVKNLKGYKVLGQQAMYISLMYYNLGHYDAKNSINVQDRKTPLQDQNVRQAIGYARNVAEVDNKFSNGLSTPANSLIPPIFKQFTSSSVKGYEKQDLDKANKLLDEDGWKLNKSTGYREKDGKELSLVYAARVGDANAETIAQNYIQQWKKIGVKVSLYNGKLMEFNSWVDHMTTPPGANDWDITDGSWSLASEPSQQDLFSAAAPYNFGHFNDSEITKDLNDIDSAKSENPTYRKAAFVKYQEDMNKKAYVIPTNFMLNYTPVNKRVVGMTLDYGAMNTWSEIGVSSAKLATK
UniProt Q8JGN5, sequence (whole entry, looked up): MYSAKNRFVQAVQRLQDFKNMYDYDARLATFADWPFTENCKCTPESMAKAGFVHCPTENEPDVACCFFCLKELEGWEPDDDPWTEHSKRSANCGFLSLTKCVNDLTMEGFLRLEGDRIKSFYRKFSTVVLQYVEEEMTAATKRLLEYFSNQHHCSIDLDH
UniProt P02751, sequence (whole entry, looked up): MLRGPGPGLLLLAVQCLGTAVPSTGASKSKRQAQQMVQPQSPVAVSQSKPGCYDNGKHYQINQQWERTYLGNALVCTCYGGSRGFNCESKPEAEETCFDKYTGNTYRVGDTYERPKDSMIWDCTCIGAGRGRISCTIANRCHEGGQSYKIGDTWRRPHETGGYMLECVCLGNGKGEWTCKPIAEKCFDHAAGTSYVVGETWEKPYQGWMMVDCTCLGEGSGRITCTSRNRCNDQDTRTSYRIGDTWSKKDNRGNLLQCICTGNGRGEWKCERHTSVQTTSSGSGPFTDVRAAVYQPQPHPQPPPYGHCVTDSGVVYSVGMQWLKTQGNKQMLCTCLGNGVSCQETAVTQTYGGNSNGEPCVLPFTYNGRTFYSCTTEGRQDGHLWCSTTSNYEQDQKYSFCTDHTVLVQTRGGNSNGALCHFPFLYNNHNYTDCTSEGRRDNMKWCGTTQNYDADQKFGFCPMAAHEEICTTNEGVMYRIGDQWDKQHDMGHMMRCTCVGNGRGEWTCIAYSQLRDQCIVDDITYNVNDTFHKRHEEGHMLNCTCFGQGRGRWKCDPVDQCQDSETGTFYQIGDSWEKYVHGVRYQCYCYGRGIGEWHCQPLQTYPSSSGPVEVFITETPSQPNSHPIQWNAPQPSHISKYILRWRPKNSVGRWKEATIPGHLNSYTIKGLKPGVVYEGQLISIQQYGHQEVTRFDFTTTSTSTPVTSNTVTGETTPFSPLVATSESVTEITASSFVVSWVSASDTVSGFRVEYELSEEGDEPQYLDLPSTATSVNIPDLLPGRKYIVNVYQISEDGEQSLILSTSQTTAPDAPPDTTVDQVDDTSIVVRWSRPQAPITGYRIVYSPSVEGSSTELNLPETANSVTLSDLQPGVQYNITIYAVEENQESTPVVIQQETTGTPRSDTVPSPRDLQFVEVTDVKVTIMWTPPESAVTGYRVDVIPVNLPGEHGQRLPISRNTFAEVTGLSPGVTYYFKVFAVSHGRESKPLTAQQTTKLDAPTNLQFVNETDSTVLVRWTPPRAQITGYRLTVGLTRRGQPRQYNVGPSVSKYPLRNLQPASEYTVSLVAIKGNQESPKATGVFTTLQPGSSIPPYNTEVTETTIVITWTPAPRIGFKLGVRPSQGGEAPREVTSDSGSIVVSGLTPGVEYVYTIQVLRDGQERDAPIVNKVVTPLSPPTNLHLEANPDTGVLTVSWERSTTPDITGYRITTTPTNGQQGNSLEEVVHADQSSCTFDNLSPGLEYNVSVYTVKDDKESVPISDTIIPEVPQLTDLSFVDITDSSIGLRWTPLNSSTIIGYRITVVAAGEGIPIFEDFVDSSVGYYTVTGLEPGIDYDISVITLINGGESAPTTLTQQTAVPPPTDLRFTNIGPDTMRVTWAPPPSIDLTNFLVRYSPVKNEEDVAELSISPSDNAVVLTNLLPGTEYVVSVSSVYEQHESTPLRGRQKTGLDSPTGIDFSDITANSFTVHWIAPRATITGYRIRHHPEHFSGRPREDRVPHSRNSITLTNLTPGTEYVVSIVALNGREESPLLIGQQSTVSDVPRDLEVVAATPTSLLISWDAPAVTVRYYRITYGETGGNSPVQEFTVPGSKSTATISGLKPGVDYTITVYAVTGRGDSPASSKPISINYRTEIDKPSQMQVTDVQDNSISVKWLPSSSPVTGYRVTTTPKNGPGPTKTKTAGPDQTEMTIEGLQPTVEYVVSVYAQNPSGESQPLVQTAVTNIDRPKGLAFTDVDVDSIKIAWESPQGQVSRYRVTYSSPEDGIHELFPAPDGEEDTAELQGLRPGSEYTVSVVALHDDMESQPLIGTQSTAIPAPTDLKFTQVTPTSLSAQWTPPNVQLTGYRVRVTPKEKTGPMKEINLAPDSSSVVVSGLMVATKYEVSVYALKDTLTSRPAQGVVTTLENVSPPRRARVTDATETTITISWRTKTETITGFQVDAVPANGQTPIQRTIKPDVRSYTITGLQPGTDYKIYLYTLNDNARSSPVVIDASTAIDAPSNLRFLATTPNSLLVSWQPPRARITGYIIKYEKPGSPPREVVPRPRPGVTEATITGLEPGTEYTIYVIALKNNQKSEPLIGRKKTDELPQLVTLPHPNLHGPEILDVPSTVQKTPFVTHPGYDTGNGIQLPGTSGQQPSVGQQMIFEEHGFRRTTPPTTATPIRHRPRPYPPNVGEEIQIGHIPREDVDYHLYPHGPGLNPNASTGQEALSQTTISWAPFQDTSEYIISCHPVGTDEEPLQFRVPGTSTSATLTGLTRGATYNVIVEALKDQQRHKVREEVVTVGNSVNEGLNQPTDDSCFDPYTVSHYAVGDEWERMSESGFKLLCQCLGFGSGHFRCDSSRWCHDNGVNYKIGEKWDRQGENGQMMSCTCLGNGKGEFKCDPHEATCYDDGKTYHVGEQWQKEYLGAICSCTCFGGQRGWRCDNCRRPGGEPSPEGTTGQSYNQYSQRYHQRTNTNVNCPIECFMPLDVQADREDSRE
UniProt Q15561, sequence (whole entry, looked up): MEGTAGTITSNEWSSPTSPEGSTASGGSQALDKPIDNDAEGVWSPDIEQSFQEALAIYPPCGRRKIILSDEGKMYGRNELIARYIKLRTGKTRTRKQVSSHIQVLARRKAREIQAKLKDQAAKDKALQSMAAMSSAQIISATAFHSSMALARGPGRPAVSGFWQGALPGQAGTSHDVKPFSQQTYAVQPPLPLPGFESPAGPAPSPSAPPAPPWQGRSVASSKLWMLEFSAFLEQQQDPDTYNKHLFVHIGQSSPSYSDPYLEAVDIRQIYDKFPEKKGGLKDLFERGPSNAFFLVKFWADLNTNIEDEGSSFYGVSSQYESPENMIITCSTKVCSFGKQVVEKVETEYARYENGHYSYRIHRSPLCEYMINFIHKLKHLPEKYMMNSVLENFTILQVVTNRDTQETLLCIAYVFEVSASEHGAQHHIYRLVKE
UniProt P37353, sequence (whole entry, unmodified, looked up): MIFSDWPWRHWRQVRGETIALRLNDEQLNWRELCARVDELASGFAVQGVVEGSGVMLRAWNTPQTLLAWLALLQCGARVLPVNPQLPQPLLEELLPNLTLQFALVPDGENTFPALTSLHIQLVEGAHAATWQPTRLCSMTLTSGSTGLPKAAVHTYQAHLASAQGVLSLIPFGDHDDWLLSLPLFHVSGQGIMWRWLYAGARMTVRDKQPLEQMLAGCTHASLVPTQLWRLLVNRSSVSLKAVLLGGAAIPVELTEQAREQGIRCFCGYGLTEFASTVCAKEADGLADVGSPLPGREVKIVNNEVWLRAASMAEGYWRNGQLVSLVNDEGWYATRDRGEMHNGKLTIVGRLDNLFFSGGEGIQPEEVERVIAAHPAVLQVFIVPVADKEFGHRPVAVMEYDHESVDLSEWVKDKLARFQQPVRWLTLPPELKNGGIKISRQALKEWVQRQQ
UniProt Q8N8S7, sequence (whole entry, looked up): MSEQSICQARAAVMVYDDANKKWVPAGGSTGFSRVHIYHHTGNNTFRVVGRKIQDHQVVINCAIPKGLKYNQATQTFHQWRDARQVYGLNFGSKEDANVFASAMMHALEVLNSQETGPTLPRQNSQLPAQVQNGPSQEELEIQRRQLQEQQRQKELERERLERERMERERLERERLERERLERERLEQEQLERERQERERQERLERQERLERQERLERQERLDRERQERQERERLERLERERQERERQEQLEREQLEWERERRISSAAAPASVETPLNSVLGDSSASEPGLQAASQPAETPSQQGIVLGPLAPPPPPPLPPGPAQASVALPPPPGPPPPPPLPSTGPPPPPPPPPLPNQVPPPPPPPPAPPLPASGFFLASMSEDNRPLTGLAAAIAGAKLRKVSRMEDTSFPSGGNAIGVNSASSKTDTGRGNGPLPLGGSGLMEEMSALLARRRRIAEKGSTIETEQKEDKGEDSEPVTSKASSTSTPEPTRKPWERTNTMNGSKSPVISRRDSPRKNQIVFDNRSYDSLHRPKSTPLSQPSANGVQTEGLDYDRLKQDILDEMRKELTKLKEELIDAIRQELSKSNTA
UniProt Q8VD00, sequence (whole entry, looked up): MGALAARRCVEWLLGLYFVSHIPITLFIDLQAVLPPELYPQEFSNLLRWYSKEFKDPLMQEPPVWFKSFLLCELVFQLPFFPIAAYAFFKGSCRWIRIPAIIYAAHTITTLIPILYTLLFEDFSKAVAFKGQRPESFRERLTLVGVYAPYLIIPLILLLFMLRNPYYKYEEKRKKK

SMILES | target or system | test | test system | setting | quantity | result
CN(C)c1ccc2c(-c3ccc(C(=O)NCCCC[C@H](NC(=O)COCCOCCNC(=O)CC[C@@H]4NC(=O)[C@@H](CCCNC(=N)N)NC(=O)[C@H](CCCNC(=N)N)NC(=O)[C@@H](CCCNC(=N)N)NC(=O)[C@H](CCCNC(=N)N)NC(=O)[C@H](Cc5csc6ccccc56)NC(=O)[C@@H](Cc5ccccc5)NC(=O)[C@H](Cc5ccccc5)NC4=O)C(N)=O)cc3C(=O)[O-])c3ccc(=[N+](C)C)cc-3oc2c1 | fetal bovine serum proteins | binding, fluorescence polarization |  | 1 h | Kd | 68 ± 9 µM
O=C(Nc1cccc(-c2nn[nH]n2)c1)c1cc(-c2ccccc2)cc(C(F)(F)F)c1 | Beta-lactamase CTX-M-27 (Escherichia coli, UniProt Q840M4) | surface plasmon resonance |  | 25 °C | Kd | 40.3 ± 2.7 µM
CC(=O)N[C@@H](Cc1ccccc1Cl)C(=O)N1CCC[C@]12C=C[C@@H]1CC[C@@H](C(=O)N3CC[C@@H]4C=C[C@H]5CC[C@@H](C(=O)N[C@H](C(=O)N[C@@H](CCC(=O)O)C(=O)N[C@@H](CC(=O)O)C(=O)N[C@@H](CCC(=O)O)C(=O)N[C@@H](CC(C)C)C(N)=O)[C@@H](C)O)N5C(=O)[C@H]43)N1C2=O | Protein enabled homolog (ENAH, UniProt Q8N8S7) | binding, fluorescence |  | pH 7.3 | Kd | 0.33 µM
CC(C)C[C@@H]1NC(=O)[C@H](C)NC(=O)[C@H](C)NC(=O)[C@H](CC(C)C)NC(=O)[C@H](CCC(=O)O)NC(=O)[C@H](C)NC(=O)[C@H](CCC(=O)O)NC(=O)[C@H](CC(C)C)NC(=O)[C@H](C)NC(=O)[C@H](C)NC(=O)[C@H](CC(C)C)NC(=O)[C@H](CCC(=O)O)NC(=O)[C@H](C)NC(=O)[C@H](C)NC(=O)[C@@H](N)CSSC[C@@H](C(N)=O)NC(=O)[C@H](C)NC(=O)[C@H](C)NC(=O)[C@H](CCCCN)NC(=O)[C@H](CC(C)C)NC(=O)[C@H](C)NC(=O)[C@H](C)NC(=O)[C@H](CC(C)C)NC(=O)[C@H](CCCCN)NC(=O)[C@H](C)NC(=O)[C@H](CCCCN)NC(=O)[C@H](CC(C)C)NC(=O)[C@H](C)NC(=O)[C@H](C)NC(=O)[C@H](CC(C)C)NC(=O)[C@H](CCCCN)NC(=O)CNC(=O)[C@H](CCCNC(=N)N)NC(=O)[C@H](Cc2ccccc2)NC(=O)[C@H](CC(C)C)NC(=O)[C@H](CCC(=O)O)NC(=O)[C@H](C(C)C)NC(=O)CNC(=O)[C@H](Cc2ccccc2)NC(=O)[C@H](CC(N)=O)NC(=O)[C@H](C(C)C)NC(=O)CNC(=O)[C@H](CCC(=O)O)NC1=O | Albumin (ALB, Homo sapiens, UniProt P02768) | binding, SPR |  |  | Kd | 0.59 µM
CC[C@H](C)[C@H](NC(=O)[C@H](CC(=O)O)NC(=O)[C@@H](NC(=O)[C@@H]1CCCN1C(=O)[C@H](CC(N)=O)NC(=O)[C@H](CCC(N)=O)NC(=O)[C@H](CCC(N)=O)NC(=O)[C@H](CC(N)=O)NC(=O)CNC(=O)[C@H](Cc1ccc(O)cc1)NC(=O)[C@@H](NC(=O)[C@H](CCC(=O)O)NC(=O)[C@@H](NC(=O)[C@@H](NC(=O)[C@H](Cc1ccc(O)cc1)NC(=O)[C@H](CCC(=O)O)NC(=O)[C@@H](NC(=O)[C@H](CCC(=O)O)NC(=O)CNC(=O)[C@H](CO)NC(=O)[C@H](CCC(=O)O)NC(=O)CNC(=O)[C@H](C)NC(=O)[C@H](CC(C)C)NC(=O)[C@@H]1CCCN1C(=O)[C@H](CO)NC(=O)[C@H](CCC(N)=O)NC(=O)[C@H](CC(=O)O)NC(=O)[C@H](CCCCN)NC(=O)[C@@H](NC(=O)CNC(=O)[C@H](CCCCN)NC(=O)[C@H](CO)NC(=O)CN)[C@@H](C)O)[C@@H](C)O)[C@@H](C)CC)[C@@H](C)O)C(C)C)C(C)C)C(=O)N[C@@H](CC(=O)O)C(=O)N[C@@H](CCCCN)C(=O)N[C@@H](CCCCN)C(=O)N[C@@H](CC(C)C)C(=O)N1CCC[C@H]1C(=O)N[C@@H](CC(N)=O)C(=O)N[C@@H](CCC(=O)O)C(=O)N[C@H](C(=O)NCC(=O)N[C@@H](Cc1ccccc1)C(=O)N[C@@H](CO)C(=O)NCC(=O)N[C@@H](CC(N)=O)C(=O)N[C@@H](CCSC)C(=O)N[C@H](C(=O)N[C@@H](CCC(=O)O)C(=O)N[C@H](C(=O)N[C@@H](CCC(=O)O)C(=O)N[C@@H](CC(=O)O)C(=O)N[C@H](C(=O)N[C@@H](CCCCN)C(=O)N[C@@H](C)C(=O)O)[C@@H](C)O)[C@@H](C)O)C(C)C)[C@@H](C)O | Fibronectin (FN1, Homo sapiens, UniProt P02751) | binding, ITC |  | pH 7.2 | Kd | 0.0052 µM
Nc1ncnc2c1ncn2C1OC(COc2cccc(CCC(=O)c3ccccc3C(=O)O)c2)C(O)C1O (centres unmarked) | 2-succinylbenzoate--CoA ligase (menE, Escherichia coli, UniProt P37353, K437A) |  |  |  | Kd | 0.249 µM
COc1ccc(C)cc1NC(=O)OC1CC2CCCC(C1)N2Cc1ccc(CCF)cc1 (centres unmarked) [fluorine-18 labelled] | Tmem97 (Mus musculus, UniProt Q8VD00) | binding, radioligand saturation binding | EMT6 mouse breast tumour membranes |  | Kd | ~0.002 µM
COC(=O)[C@H](Cc1ccccc1)NC(=O)[C@@H]1CCCN1C(=O)[C@H](CCSC)NC(=O)[C@H](C)NC(C)=O | PIN1 | binding |  | pH 7.4 | Kd | 14.1 µM
CN[C@](C)(C[18F])C(=O)O | A549 tumour model |  | host not given, heart | 30 min, tumour-bearing | tracer uptake | 2.7 %ID/g
CSCC[C@H](N)C(=O)N[C@@H](CC(=O)O)C(=O)N[C@@H](CO)C(=O)N[C@@H](Cc1ccccc1)C(=O)N[C@@H](CC(N)=O)C(=O)N[C@@H](C)C(=O)N[C@H](C(=O)N[C@H](C(=O)N1CCC[C@H]1C(=O)N[C@@H](CC(=O)O)C(=O)N[C@@H](C)C(=O)NCC(=O)N[C@@H](Cc1c[nH]cn1)C(=O)N[C@@H](C)C(=O)N[C@@H](CC(=O)O)C(=O)N[C@@H](CC(=O)O)C(=O)N[C@@H](CCCCN)C(=O)N[C@@H](CC(=O)O)C(=O)N[C@H](C(=O)N[C@@H](CC(C)C)C(=O)N[C@@H](CC(=O)O)C(=O)N[C@@H](CC(C)C)C(=O)N[C@@H](CC(N)=O)C(=O)N[C@H](C(=O)N1CCC[C@H]1C(=O)N[C@H](C(=O)N[C@@H](CC(=O)O)C(=O)N[C@@H](CCCCN)C(=O)O)C(C)C)[C@@H](C)O)[C@@H](C)O)[C@@H](C)O)[C@@H](C)O | Complement C5, C5a fragment (Homo sapiens, UniProt P01031) | circular dichroism titration |  | pH 7.4, 25 °C | Kd | ~0.123 µM
C[C@H](N)C(=O)N[C@@H](CCCNC(=N)N)C(=O)N[C@H](C(=O)N[C@@H](CCCCN)C(=O)N[C@@H](CCC(N)=O)C(=O)N[C@H](C(=O)N[C@@H](C)C(=O)N[C@@H](CCCNC(=N)N)C(=O)N[C@@H](CCCCN)C(=O)N[C@@H](CO)C(=O)N[C@H](C(=O)NCC(=O)O)[C@@H](C)O)[C@@H](C)O)[C@@H](C)OP(=O)(O)O | Baculoviral IAP repeat-containing protein 5.1-A (birc5.1-a, Xenopus laevis, UniProt Q8JGN5) | ITC |  | pH 7.8, 25 °C | Kd | 6.31 ± 0.58 µM
CC(=O)NCCOCCOCC(=O)N[C@@H](CC(C)C)C(=O)N1CCC[C@H]1C(=O)N[C@H]1CCCCNC(=O)CSC[C@@H](C(=O)NCC(=O)NCC(=O)N[C@@H](CO)C(=O)NCC(N)=O)NC(=O)CNC(=O)[C@H](CC(C)C)NC(=O)[C@H](CO)NC(=O)[C@H](Cc2ccccc2)NC(=O)[C@H](CC(=O)O)NC(=O)[C@H](Cc2c[nH]c3ccccc23)NC(=O)[C@H](Cc2ccccc2)NC(=O)[C@H](CO)NC(=O)[C@H](CCCCN)NC(=O)[C@@H]2CCCN2C(=O)[C@H](Cc2c[nH]c3ccccc23)NC(=O)[C@H](CCC(N)=O)NC(=O)CNC(=O)[C@H]([C@@H](C)O)NC1=O | TEAD4 (Homo sapiens, UniProt Q15561) | binding, FP |  |  | Kd | 2.1 µM
CC(C)C[C@H](NC(=O)[C@H](CCC(N)=O)NC(=O)[C@@H]1CSSC[C@@H]2NC(=O)[C@H](CC(N)=O)NC(=O)[C@@H](N)CSSC[C@H](NC(=O)[C@H](Cc3ccccc3)NC(=O)[C@H](C)NC(=O)[C@H]([C@@H](C)O)NC(=O)[C@H](CCC(=O)O)NC(=O)[C@@H]3CCCN3C(=O)[C@H](C)NC(=O)[C@H](CCCCN)NC2=O)C(=O)N[C@@H](C)C(=O)N[C@@H](Cc2ccc(O)cc2)C(=O)N[C@@H](Cc2c[nH]c3ccccc23)C(=O)N1)C(N)=O | Protein Mdm4, residues 24-108 (MDM4, Homo sapiens, UniProt O15151) | binding, SPR competition |  | synthetic MDMX 24-108, together with: immobilized p53 peptide 15-29 | Kd | 0.0934 ± 0.0092 µM
C[C@@H](O)[C@H](NC(=O)[C@@H]1CCCN1C(=O)[C@H](COP(=O)(O)O)NC(=O)[C@H](Cc1ccc(O)cc1)NC(=O)[C@H](CO)NC(=O)[C@@H]1CCCN1C(=O)[C@H](COP(=O)(O)O)NC(=O)[C@@H](NC(=O)[C@@H]1CCCN1C(=O)[C@H](COP(=O)(O)O)NC(=O)[C@H](Cc1ccc(O)cc1)NC(=O)[C@H](CO)NC(=O)[C@@H]1CCCN1C(=O)[C@@H](N)CO)[C@@H](C)O)C(=O)N[C@@H](COP(=O)(O)O)C(=O)N1CCC[C@H]1C(=O)N[C@@H](CO)C(=O)N[C@@H](Cc1ccc(O)cc1)C(=O)N[C@@H](CO)C(=O)O | Regulation of nuclear pre-mRNA domain-containing protein 2 (Homo sapiens, UniProt Q5VT52) | binding, ITC |  | pH 7.5 | Kd | > 1000 µM
N=C(N)NCCC[C@H](NC(=O)[C@H](Cc1ccccc1)NC(=O)[C@@H]1CCCN1C(=O)[C@H](CO)NC(=O)[C@H](Cc1ccccc1)NC(=O)CNC(=O)[C@@H]1CCCN1C(=O)[C@@H]1CCCN1C(=O)[C@@H](N)CCCNC(=N)N)C(=O)N[C@@H](CCCCNS(=O)(=O)c1ccc(C2=c3cc4c5c(c3Oc3c2cc2c6c3CCCN6CCC2)CCC[N+]=5CCC4)c(S(=O)(=O)[O-])c1)C(=O)O | Oligopeptide-binding protein OppA (oppA, Lactococcus lactis subsp. lactis, UniProt Q07741) | binding, fluorescence anisotropy |  | pH 5, 30 °C, together with: dye-labelled peptide | Kd | 15.4 ± 0.7 µM
N[C@@H](Cc1ccc(O)c(I)c1)C(=O)O | Iodotyrosine deiodinase (IYD, Thermotoga neapolitana, UniProt B9K712, F88A/W82A/Y112A) | FMN fluorescence quenching |  | 25 °C, Y112A/W82A/F88A variant | Kd | 0.9 ± 0.1 µM
COC(=O)[C@H](Cc1ccccc1)NC(=O)[C@@H]1CCCN1C(=O)[C@H](CCCCNC(=O)OCc1ccccc1)NC(=O)[C@H](C)NC(C)=O | PIN1 | binding |  | pH 7.4 | Kd | 70.2 µM and ~70 µM

Some of these lines once more:
SMILES | target or system | test | test system | setting | quantity | result
CC(=O)N[C@@H](Cc1ccccc1Cl)C(=O)N1CCC[C@]12C=C[C@@H]1CC[C@@H](C(=O)N3CC[C@@H]4C=C[C@H]5CC[C@@H](C(=O)N[C@H](C(=O)N[C@@H](CCC(=O)O)C(=O)N[C@@H](CC(=O)O)C(=O)N[C@@H](CCC(=O)O)C(=O)N[C@@H](CC(C)C)C(N)=O)[C@@H](C)O)N5C(=O)[C@H]43)N1C2=O | Protein enabled homolog (ENAH, UniProt Q8N8S7) | binding, fluorescence |  | pH 7.3 | Kd | 0.33 µM
CC(=O)NCCOCCOCC(=O)N[C@@H](CC(C)C)C(=O)N1CCC[C@H]1C(=O)N[C@H]1CCCCNC(=O)CSC[C@@H](C(=O)NCC(=O)NCC(=O)N[C@@H](CO)C(=O)NCC(N)=O)NC(=O)CNC(=O)[C@H](CC(C)C)NC(=O)[C@H](CO)NC(=O)[C@H](Cc2ccccc2)NC(=O)[C@H](CC(=O)O)NC(=O)[C@H](Cc2c[nH]c3ccccc23)NC(=O)[C@H](Cc2ccccc2)NC(=O)[C@H](CO)NC(=O)[C@H](CCCCN)NC(=O)[C@@H]2CCCN2C(=O)[C@H](Cc2c[nH]c3ccccc23)NC(=O)[C@H](CCC(N)=O)NC(=O)CNC(=O)[C@H]([C@@H](C)O)NC1=O | TEAD4 (Homo sapiens, UniProt Q15561) | binding, FP |  |  | Kd | 2.1 µM
